{"data": "Published values gathered from unrelated publications", "note": "Each numbered part is a random draw from the data of one study; scales do not carry over between parts. “And” joins repeats or separate records; there may be more than shown.", "sequence of UniProt Q9NYL2 (whole entry, looked up)": "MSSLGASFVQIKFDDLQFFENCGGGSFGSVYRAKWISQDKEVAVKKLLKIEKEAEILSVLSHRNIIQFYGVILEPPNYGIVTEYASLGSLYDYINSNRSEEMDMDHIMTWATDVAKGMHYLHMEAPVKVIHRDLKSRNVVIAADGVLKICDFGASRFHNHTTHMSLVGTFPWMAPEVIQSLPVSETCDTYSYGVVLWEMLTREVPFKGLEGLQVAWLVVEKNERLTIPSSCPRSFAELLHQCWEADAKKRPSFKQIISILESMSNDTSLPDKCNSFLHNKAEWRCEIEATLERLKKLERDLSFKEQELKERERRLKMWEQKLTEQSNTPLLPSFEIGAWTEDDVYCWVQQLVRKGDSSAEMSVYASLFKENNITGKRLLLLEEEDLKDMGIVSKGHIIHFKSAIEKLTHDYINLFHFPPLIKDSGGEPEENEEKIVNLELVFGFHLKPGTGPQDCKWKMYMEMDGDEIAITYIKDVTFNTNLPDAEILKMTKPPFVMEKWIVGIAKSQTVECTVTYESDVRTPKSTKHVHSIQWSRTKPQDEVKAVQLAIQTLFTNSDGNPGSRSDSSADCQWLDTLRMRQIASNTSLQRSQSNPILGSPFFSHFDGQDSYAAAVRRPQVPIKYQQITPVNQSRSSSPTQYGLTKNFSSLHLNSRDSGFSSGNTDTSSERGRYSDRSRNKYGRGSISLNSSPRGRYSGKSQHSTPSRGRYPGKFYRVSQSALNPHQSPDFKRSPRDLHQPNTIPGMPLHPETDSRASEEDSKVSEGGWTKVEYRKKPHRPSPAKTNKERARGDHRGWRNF", "sequence of UniProt P51812 (whole entry, looked up)": "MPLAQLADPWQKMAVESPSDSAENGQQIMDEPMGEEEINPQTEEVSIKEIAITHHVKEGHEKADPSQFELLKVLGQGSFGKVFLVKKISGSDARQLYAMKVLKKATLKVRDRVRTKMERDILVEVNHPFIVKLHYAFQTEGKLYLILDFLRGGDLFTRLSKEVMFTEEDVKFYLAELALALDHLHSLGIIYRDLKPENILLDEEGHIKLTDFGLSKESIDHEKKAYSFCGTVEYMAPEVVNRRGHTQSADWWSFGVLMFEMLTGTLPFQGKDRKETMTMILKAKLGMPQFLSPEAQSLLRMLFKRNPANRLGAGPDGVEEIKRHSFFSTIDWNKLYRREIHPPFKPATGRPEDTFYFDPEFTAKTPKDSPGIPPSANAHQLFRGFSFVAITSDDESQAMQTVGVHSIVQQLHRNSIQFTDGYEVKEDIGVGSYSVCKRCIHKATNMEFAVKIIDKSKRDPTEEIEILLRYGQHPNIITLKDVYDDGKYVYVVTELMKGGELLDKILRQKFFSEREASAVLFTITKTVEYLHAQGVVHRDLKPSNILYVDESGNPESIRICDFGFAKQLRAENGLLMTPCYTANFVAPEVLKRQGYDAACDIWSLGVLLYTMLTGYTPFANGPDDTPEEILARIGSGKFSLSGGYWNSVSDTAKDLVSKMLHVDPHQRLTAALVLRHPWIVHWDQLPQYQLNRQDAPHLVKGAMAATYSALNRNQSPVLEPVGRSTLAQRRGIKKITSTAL", "sequence of UniProt O15146 (whole entry, looked up)": "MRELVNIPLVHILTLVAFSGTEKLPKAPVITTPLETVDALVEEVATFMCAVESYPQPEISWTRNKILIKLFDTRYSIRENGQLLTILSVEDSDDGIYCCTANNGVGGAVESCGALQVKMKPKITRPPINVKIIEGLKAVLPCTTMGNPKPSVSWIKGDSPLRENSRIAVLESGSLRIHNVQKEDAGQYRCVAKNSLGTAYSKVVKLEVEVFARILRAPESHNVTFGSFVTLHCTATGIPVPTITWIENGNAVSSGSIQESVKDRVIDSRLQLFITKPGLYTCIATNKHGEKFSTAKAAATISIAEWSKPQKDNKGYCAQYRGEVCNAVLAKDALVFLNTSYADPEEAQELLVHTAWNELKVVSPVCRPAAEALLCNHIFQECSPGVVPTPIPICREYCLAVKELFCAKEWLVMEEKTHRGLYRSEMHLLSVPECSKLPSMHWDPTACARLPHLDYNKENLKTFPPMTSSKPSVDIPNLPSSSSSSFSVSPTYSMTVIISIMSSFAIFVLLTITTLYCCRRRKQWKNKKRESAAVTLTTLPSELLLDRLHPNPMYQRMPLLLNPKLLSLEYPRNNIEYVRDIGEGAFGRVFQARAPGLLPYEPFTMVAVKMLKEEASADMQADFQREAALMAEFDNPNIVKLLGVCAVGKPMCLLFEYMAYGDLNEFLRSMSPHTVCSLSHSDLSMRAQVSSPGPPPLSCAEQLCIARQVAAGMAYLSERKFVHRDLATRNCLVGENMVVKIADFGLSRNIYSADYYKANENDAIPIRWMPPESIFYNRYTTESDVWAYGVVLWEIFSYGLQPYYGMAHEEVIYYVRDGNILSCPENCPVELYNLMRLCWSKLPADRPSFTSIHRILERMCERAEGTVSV"}
{"data": "Series 1", "target": "DNA polymerase theta, ATPase domain (POLQ, Homo sapiens, UniProt O75417)", "read-out": "enzyme activity", "action": "inhibitor", "tested at": "77 µM", "relative to": "untreated", "sequence of UniProt O75417 (whole entry, unmodified, looked up)": "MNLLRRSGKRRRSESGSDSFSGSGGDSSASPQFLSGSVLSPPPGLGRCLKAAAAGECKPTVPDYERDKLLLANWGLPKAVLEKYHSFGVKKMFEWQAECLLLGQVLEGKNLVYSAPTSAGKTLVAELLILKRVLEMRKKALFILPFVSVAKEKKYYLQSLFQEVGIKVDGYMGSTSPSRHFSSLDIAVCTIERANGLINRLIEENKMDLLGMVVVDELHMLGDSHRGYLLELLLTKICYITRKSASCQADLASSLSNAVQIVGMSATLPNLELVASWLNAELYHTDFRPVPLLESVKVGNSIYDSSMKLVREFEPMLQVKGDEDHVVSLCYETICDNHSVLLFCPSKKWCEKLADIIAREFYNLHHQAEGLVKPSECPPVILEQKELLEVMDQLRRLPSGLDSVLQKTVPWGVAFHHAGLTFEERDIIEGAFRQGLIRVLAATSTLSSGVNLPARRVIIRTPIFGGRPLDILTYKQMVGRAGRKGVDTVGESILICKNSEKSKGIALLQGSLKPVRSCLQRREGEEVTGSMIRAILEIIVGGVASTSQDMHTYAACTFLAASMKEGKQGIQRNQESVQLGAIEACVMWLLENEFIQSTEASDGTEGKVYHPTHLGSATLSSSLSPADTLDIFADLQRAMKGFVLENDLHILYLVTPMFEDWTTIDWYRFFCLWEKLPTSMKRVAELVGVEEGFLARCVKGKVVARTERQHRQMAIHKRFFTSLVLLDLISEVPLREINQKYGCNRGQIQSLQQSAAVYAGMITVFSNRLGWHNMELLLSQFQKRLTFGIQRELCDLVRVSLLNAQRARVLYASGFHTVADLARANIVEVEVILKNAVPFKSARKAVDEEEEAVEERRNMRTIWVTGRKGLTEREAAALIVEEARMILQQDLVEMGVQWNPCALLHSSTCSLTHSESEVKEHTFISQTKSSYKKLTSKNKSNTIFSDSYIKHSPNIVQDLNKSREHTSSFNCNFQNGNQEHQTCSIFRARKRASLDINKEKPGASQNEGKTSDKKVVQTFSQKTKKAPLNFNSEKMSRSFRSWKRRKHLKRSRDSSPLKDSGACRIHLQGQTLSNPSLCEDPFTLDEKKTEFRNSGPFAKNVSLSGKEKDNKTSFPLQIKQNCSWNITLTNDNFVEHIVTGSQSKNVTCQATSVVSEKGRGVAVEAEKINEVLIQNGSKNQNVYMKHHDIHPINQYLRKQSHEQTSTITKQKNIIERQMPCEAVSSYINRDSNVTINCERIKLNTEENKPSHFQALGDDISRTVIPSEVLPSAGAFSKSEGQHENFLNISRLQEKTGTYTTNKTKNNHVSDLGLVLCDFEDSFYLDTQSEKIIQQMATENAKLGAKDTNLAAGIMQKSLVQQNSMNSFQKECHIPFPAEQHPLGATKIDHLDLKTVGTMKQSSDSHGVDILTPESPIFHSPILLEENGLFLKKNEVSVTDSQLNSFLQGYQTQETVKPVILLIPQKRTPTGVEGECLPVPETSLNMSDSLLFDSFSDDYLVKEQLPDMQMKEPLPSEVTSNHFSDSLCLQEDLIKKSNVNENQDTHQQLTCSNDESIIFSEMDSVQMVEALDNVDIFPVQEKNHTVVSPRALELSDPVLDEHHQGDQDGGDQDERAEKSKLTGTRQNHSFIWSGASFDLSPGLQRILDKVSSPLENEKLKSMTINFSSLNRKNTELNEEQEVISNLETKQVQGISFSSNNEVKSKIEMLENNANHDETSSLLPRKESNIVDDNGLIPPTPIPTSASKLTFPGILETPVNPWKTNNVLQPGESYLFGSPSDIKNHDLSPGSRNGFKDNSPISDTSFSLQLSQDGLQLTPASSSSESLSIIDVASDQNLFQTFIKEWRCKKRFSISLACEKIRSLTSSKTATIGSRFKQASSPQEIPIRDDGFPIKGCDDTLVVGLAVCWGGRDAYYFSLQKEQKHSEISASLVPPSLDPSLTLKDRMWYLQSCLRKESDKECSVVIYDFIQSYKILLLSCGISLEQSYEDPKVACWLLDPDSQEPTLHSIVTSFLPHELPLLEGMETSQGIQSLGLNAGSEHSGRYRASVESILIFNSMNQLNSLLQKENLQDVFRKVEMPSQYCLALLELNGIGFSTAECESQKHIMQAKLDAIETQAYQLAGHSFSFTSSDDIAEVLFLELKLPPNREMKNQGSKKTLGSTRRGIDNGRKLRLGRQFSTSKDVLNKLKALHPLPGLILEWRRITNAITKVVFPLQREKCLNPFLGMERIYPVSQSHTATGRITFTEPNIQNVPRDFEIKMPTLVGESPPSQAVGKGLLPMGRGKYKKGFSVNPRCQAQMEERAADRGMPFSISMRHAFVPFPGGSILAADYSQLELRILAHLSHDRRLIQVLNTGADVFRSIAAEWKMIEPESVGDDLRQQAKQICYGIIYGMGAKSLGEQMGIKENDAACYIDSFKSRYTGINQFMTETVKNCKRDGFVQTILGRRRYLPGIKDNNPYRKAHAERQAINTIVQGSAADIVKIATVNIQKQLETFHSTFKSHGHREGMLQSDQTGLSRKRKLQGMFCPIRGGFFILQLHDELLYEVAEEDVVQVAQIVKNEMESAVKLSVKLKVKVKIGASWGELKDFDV"}
{"Structure (SMILES)": "C[C@]12C=CC(=O)C=C1CC[C@@H]1[C@@H]2C(=O)C[C@@]2(C)[C@H]1CC[C@]2(O)C(=O)CO", "remaining activity": "103% and 95.2%"}
{"Structure (SMILES)": "CC#CCn1c(N2CCC[C@@H](N)C2)nc2c1c(=O)n(Cc1nc(C)c3ccccc3n1)c(=O)n2C", "remaining activity": "98.2%"}
{"Structure (SMILES)": "CCCCCCCCCCCCCCCC[N+](C)(C)C", "remaining activity": "91.7%"}
{"Structure (SMILES)": "CC1CCc2cc(F)cc3c(=O)c(C(=O)O)cn1c23 (stereo not shown)", "remaining activity": "103% and 102%"}
{"Structure (SMILES)": "CCCCCCCCCCCCCCCC(=O)O[C@@H]1[C@@H](O)[C@@H](O)[C@@H]([C@H](NC(=O)[C@@H]2C[C@@H](CCC)CN2C)[C@H](C)Cl)O[C@@H]1SC", "remaining activity": "94.4%"}
{"Structure (SMILES)": "Cc1ncc([N+](=O)[O-])n1CC(C)O (stereo not shown)", "remaining activity": "102%"}
{"Structure (SMILES)": "CCCCCCC[N+](CC)(CC)CCCCc1ccc(Cl)cc1", "remaining activity": "95.7%"}
{"Structure (SMILES)": "COc1cc2ncc(-c3ccccc3)nc2cc1OC", "remaining activity": "99.7%"}
{"data": "Series 2", "SMILES": "Cc1cncc2cccc(S(=O)(=O)N3CCCN(C(=O)CN)C[C@@H]3C)c12", "read-out": "enzyme activity", "action": "inhibitor", "tested at": "0.5 µM", "relative to": "control"}
{"target": "EPHA6 (Homo sapiens, UniProt Q9UF33)", "remaining activity [%]": 92.2}
{"target": "PAK6 (Homo sapiens, UniProt Q9NQU5)", "remaining activity [%]": 108}
{"target": "MAP3K20 (Homo sapiens, UniProt Q9NYL2)", "remaining activity [%]": 108}
{"target": "CLK2 (Homo sapiens, UniProt P49760)", "remaining activity [%]": 102}
{"target": "CSNK1D (Homo sapiens, UniProt P48730)", "remaining activity [%]": 107}
{"target": "Cyclin-dependent kinase 2, with cyclin E (CDK2, Homo sapiens, UniProt P24941)", "remaining activity [%]": 92.3}
{"target": "CAMK1 (Homo sapiens, UniProt Q14012)", "remaining activity [%]": 102}
{"target": "RPS6KA3 (Homo sapiens, UniProt P51812)", "remaining activity [%]": 91.8}
{"target": "SGK2 (Homo sapiens, UniProt Q9HBY8)", "remaining activity [%]": 102}
{"target": "PRKCZ (Homo sapiens, UniProt Q05513)", "remaining activity [%]": 91.2}
{"target": "IGF1R (Homo sapiens, UniProt P08069)", "remaining activity [%]": 110}
{"target": "SRPK1 (Homo sapiens, UniProt Q96SB4)", "remaining activity [%]": 103}
{"target": "JAK1 (Homo sapiens, UniProt P23458)", "remaining activity [%]": 108}
{"target": "CSNK1E (Homo sapiens, UniProt P49674)", "remaining activity [%]": 100}
{"target": "PAK1 (Homo sapiens, UniProt Q13153)", "remaining activity [%]": 98.1}
{"target": "PRKCQ (Homo sapiens, UniProt Q04759)", "remaining activity [%]": 105}
{"target": "MUSK (Homo sapiens, UniProt O15146)", "remaining activity [%]": 88.7}
{"target": "TEC (Homo sapiens, UniProt P42680)", "remaining activity [%]": 117}
{"target": "SIK2 (Homo sapiens, UniProt Q9H0K1)", "remaining activity [%]": 89.4}
{"target": "TYRO3 (Homo sapiens, UniProt Q06418)", "remaining activity [%]": 98.9}
{"target": "FLT1 (Homo sapiens, UniProt P17948)", "remaining activity [%]": 96.9}
{"target": "CAMKK1 (Homo sapiens, UniProt Q8N5S9)", "remaining activity [%]": 115}
{"target": "CLK1 (Homo sapiens, UniProt P49759)", "remaining activity [%]": 104}
{"data": "Series 3", "SMILES": "Cc1nc(Nc2ncc(C(=O)Nc3c(C)cccc3Cl)s2)cc(N2CCN(CCO)CC2)n1", "action": "inhibitor"}
{"target": "CDK15 (Homo sapiens, UniProt Q96Q40)", "tested at": "10 µM", "inhibition [%]": "< 50"}
{"target": "MAP3K3 (Homo sapiens, UniProt Q99759)", "tested at": "10 µM", "inhibition [%]": 87}
{"target": "RET (Homo sapiens, UniProt P07949, V804M)", "tested at": "10 µM", "inhibition [%]": "< 50"}
{"target": "AKT1 (Homo sapiens, UniProt P31749)", "tested at": "1 µM", "inhibition [%]": "< 50"}
{"target": "MUSK (Homo sapiens, UniProt O15146)", "tested at": "10 µM", "inhibition [%]": "< 50"}
{"target": "CAMKK2 (Homo sapiens, UniProt Q96RR4)", "tested at": "10 µM", "inhibition [%]": "< 50"}
{"target": "MAP2K4 (Homo sapiens, UniProt P45985)", "tested at": "10 µM", "inhibition [%]": "< 50"}
{"target": "Ribosomal protein S6 kinase alpha-3, N-terminal kinase domain (RPS6KA3, Homo sapiens, UniProt P51812)", "tested at": "1 µM", "inhibition [%]": "< 50"}
{"data": "Series 4", "SMILES": "Cc1nc(N2CC[C@@H](O)C2)ncc1-c1cc(C(F)(F)F)cc2[nH]ncc12", "method": "competition with immobilised ligand", "tested at": "1 µM"}
{"target": "PLK3 (Homo sapiens, UniProt Q9H4B4)", "read-out": "binding", "remaining binding": "78%"}
{"target": "EGFR (Homo sapiens, UniProt P00533)", "read-out": "cell-free assay", "remaining binding": "71%"}
{"target": "CDK8 (Homo sapiens, UniProt P49336)", "read-out": "binding", "remaining binding": "88%"}
{"target": "WNK3 (Homo sapiens, UniProt Q9BYP7)", "read-out": "binding", "remaining binding": "67%"}
{"target": "RIPK2 (Homo sapiens, UniProt O43353)", "read-out": "binding", "remaining binding": "95%"}
{"target": "RET (Homo sapiens, UniProt P07949, V804L)", "read-out": "cell-free assay", "remaining binding": "100%"}
{"target": "TAOK2 (Homo sapiens, UniProt Q9UL54)", "read-out": "binding", "remaining binding": "100%"}
{"target": "NEK3 (Homo sapiens, UniProt P51956)", "read-out": "binding", "remaining binding": "60%"}
{"target": "TLK1 (Homo sapiens, UniProt Q9UKI8)", "read-out": "cell-free assay", "remaining binding": "100%"}
{"target": "ROS1 (Homo sapiens, UniProt P08922)", "read-out": "cell-free assay", "remaining binding": "86%"}
{"target": "MKNK1 (Homo sapiens, UniProt Q9BUB5)", "read-out": "binding", "remaining binding": "61%"}
{"target": "SGK1 (Homo sapiens, UniProt O00141)", "read-out": "binding", "remaining binding": "49%"}
{"target": "MARK3 (Homo sapiens, UniProt P27448)", "read-out": "binding", "remaining binding": "100%"}
{"target": "Ribosomal protein S6 kinase alpha-5, N-terminal kinase domain (RPS6KA5, Homo sapiens, UniProt O75582)", "read-out": "binding", "remaining binding": "100%"}
{"target": "MARK1 (Homo sapiens, UniProt Q9P0L2)", "read-out": "binding", "remaining binding": "74%"}
{"target": "MAP4K3 (Homo sapiens, UniProt Q8IVH8)", "read-out": "binding", "remaining binding": "100%"}
{"target": "Tyrosine-protein kinase ABL1, phosphorylated (ABL1, Homo sapiens, UniProt P00519, Q252H)", "read-out": "binding", "remaining binding": "79%"}
{"target": "PHKG2 (Homo sapiens, UniProt P15735)", "read-out": "cell-free assay", "remaining binding": "100%"}
{"target": "MAP3K20 (Homo sapiens, UniProt Q9NYL2)", "read-out": "binding", "remaining binding": "100%"}
{"target": "TSSK3 (Homo sapiens, UniProt Q96PN8)", "read-out": "binding", "remaining binding": "100%"}
{"target": "MAPK8 (Homo sapiens, UniProt P45983)", "read-out": "binding", "remaining binding": "100%"}
{"target": "CDK17 (Homo sapiens, UniProt Q00537)", "read-out": "binding", "remaining binding": "91%"}
{"target": "GRK7 (Homo sapiens, UniProt Q8WTQ7)", "read-out": "binding", "remaining binding": "70%"}
{"target": "DAPK2 (Homo sapiens, UniProt Q9UIK4)", "read-out": "binding", "remaining binding": "100%"}
{"target": "PRKCH (Homo sapiens, UniProt P24723)", "read-out": "cell-free assay", "remaining binding": "94%"}
{"note": "Excerpt of the above (series 3):"}
{"target": "MAP3K3 (Homo sapiens, UniProt Q99759)", "tested at": "10 µM", "inhibition [%]": 87}
{"target": "AKT1 (Homo sapiens, UniProt P31749)", "tested at": "1 µM", "inhibition [%]": "< 50"}
{"target": "MUSK (Homo sapiens, UniProt O15146)", "tested at": "10 µM", "inhibition [%]": "< 50"}
{"target": "RET (Homo sapiens, UniProt P07949, V804M)", "tested at": "10 µM", "inhibition [%]": "< 50"}
{"target": "CAMKK2 (Homo sapiens, UniProt Q96RR4)", "tested at": "10 µM", "inhibition [%]": "< 50"}
{"target": "CDK15 (Homo sapiens, UniProt Q96Q40)", "tested at": "10 µM", "inhibition [%]": "< 50"}
{"target": "Ribosomal protein S6 kinase alpha-3, N-terminal kinase domain (RPS6KA3, Homo sapiens, UniProt P51812)", "tested at": "1 µM", "inhibition [%]": "< 50"}
{"target": "MAP2K4 (Homo sapiens, UniProt P45985)", "tested at": "10 µM", "inhibition [%]": "< 50"}
